# Results of several laboratories.
# Each numbered part is a random draw from the data of one study; scales do not carry over between parts. Positions count from the first letter of the parent shown.

# Sample 1
# Target: RING finger protein unkempt homolog, zinc fingers 1-6, GST-SBP tag (UNK, Homo sapiens, UniProt Q9C0B0, residues 30-357)
# Technique: RNA Bind-n-Seq
# Form: RNA
# Matrix: in vitro
# Concentration: not given
# Notes: RNA with constant flanks, human and mouse sites, ends assumed
# Reference: input RNA pool
# Reading: higher = stronger binding
# Constant ends, left off below: GGGAGUUCUACAGUCCGACGAUC … CAACAGAGGAUUGAGCAUCA
# Construct (chain): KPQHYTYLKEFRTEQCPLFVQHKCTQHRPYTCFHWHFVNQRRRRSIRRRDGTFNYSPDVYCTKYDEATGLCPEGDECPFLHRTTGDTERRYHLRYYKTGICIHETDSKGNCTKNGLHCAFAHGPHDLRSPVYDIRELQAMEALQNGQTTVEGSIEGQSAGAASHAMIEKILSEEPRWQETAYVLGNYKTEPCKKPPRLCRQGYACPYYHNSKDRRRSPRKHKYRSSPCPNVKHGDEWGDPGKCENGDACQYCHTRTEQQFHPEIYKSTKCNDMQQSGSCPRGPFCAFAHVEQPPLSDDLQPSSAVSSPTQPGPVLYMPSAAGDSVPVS
Oligonucleotide,bound/input enrichment [ratio]
ACCUAGCCAGUCCAACCUCCACCAUGGGGGCCGUGACCUGGCUACUGCCAGGCAUCUUUCUAGCUUUGUUUGCCCUCACUCCCGAAGGUGGGGUCCUCAAGAAAAUCAUCAGGCACAAGC,0.192
UAGUAUUAUAUAUACUGAACCUUCAGACUGUUAAGAAUCAAUGUAACUUUUUUUUUUUACUGUUAUUGUAAGCAACUAAUAUUUCACUGCACGUUUCCCACACUGGUGUUCAUUCCUAAC,0.859
AGAUUCAAACCUGUGGUACCAUGGCCUCAUGUUGAAGGAGUAGAAGUGGACUUAGAGUCUAUUAGAAGAAAAAACAAAGCCAAAAAUGAACAGGAGCGCCAUGCUGGAGGAGAUUCCCAG,4.89
AAGAGAAAAUGCCUGCUGUUGUAAAUGUCUCAGCCCCUCGUUCUUGGUCCUGUCCCUUGGAACCUUUGUACGCUUUGCUCAAAAAAAAACAAAAAAAAAAAACAAAAAAAAAAAACAACG,0.418
UAGCGCAACUUCCGGUAUUGUUGCAAGAUGGCCGCGCCCAGUGAUGGAUUCAAGCCUCGUGAACGAAGCGGUGGGGAGCAGGCACAGGACUGGGAUGCUCUGCCACCCAAGCGGCCCCGA,0.171
GAAAUUAAAAAUUACACAAAAGAGCAUAAUAAUUUAAUUCUGCUAAAUAAGGAUGUUCAACAGGAAAGCAGUGAGCAAAAAAAUAAAUCAACAGACAAAGGUGAAAAGAAGCCAGACAGC,0.95
GAGCCACCCGUUUUGCACUUCUCUCGCUUUUCUUCCUCCCUCUUUGGCUCCCAUUUCAAUGGACAGAAAGACUAUGUGGCAUCUCUAUUUUCAUUCACUUGGUUUAUUGUCUUGGUAUGU,0.353
CGUUAUUUUCAUGUGGUCAUUGCUGGCCCCCAGGAUUCCCCCUUUGAGGGAGGGACUUUUAAACUUGAACUAUUCCUUCCAGAAGAAUACCCAAUGGCAGCACCUAAAAUAAGUGGUCCC,0.264
CAGCGGCAGUCUUUCCCCCCUGUGUGCACCCACAAUAUGCUGGAUGACUCCUCAGACCCCAUCCUGACCACCAUCCGCCGAAUCGGCCUCUUCAAUAGCAGUGCCGACAGGGUGAAGGUG,0.226
GGCCAGAGCCUGAACAGACUCUUUCAGGAAGUACCGAAACGAAGAAAUGGGUCUGAAGGUAACAUCACUACCCGGAUCCGAGCAUCUGAGACUGGUUCUGAUGAAGCCAUCAAGUCCAUC,0.062
CUCAAGAACCCCCACUUCAUCUUUGACGUGCAUGUCCACGAGGUGGUGGACGCCUCGCUGUCAGUCAUCGCGCAGACCUUCAUGGAUGCCUGCACGCGCACGGAGCAUAAGCUGAGCCGC,0.0714

# Sample 2
# Target: RNA binding protein fox-1 homolog 2, RRM domain, GST-SBP tag (RBFOX2, Homo sapiens, UniProt O43251-10, residues 100-194)
# Technique: RNA Bind-n-Seq
# Form: RNA
# Matrix: in vitro
# Concentration: 365 nM
# Notes: natural RNA segment, single round, ends assumed
# Reference: no-protein control
# Reading: higher = stronger binding
# Constant ends, left off below: GGGAGUUCUACAGUCCGACGAUC … UGGAAUUCUCGGGUGCCAA
# Target sequence (chain): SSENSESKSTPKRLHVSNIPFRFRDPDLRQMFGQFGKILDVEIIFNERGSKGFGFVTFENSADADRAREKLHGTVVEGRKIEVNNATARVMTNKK
Oligonucleotide,RBNS enrichment (R)
GCAAGUGGGACCUUGCUGGGCAUUAUAUGCCCUGUGGGGGUUUCAGAGACCCUGAAAGAGGAGGGAGGACCCGCCUCCUUGUCUGCACAACUGCAUGCACUUCUCUCCCC,1.59
UAAAAUAUCCACUGGACACUGUGAAAUACACUAACAGGAUGGCUGGGUAGAGCAAUCUGGGCACUUUGGCCAAUUUUAGUCUUGCUGUUUCUUGAUGCUCACCUCUAUAU,0.279
CCUGUCCUAGGUCAUGAAGGACACUCUGCAGGGUGAAGCACCAGGGAGAGGCCUCGGCUGUCUCCUGUCCCCGGCGGGGUGCCUGCUGUCCGUCCCGCUUUCAUGUUACU,8.14
ACAAGAGCAAAACUCCGUCUCAAAAAAAAAAAAAAGAUACAAAGUCUGCAUUUGAUAUAAUGCCUUAAUUACUGGGUCUACAAUUAAUGUUGACUGUUUUAGAUUGUAAG,0.527
UCUCUCCCUAGUGUCCCUUCAGCCUGGGCUGACCAGUGCCCGCCUCUGGGCUUGACCAGUUCCCAAUCUCGUCCUCUGUCCCCAACUUCUUAAGCACAAUUGGGCUUCUU,0.488
AAGCCUAAUUGUAGUUCGUAACAAUUUGUCAGUACGUACUAAUUGCCUUAUUCUUCAGCUAGUGGUUUAUAAAGAGGCUGCAUAGAAAGUUUUACACAUGGAAGCAGCUG,0.552
GGCUUCUCCCCACCGUGCGCCUGUUACAAACUGUUGUGGAUUCUGCCAGGCUCGAAGAAAAUGAUCUGAAUUUCUUCCUCUUUUUGGUUUUAUUUUGUUGGUUUACUUUG,0.504
CUGUAUUGUAAUAUUAUUUGUUGAAUGUAGUAAUUAGGUAUUUAUGAAUAUAUUGCUGUAAUUUCUGACAUCCCGAAAAAUAAAAUCUUCCUAAAUCAUGUUAAGACGAA,0.449
UGGUCUGAGAGGGAGAAGCCUGGAUGUAGGAAAACCCGUUUCCACCCCAGGCCCUACUCCCUAGCCUUUUCCAAGUGGGACAUGGAAGAGGCAGCCUGCUGCCUGGAUGC,0.687
UCCCGAGCUCCCUCUGGGGACGGCUGGCUCACUGUCUCCAGUUCUCAAUGGCCAACGAAGGUGCUUGGAAACACCUAACCUUGCAAGUUUUACCGCCUUUUGAGGAACAC,0.466
AAACACAAAAUGUUGGGUGAAACUGGGAACAACUACUCAGAAGCUCAUUUAUUUGCUUAAAUGGAAAGUGUGGGAGCCACUACCCUCUCUUUUGAUCUGCCAAGGAUUUC,0.318
GUGAGCCUCUUGCUAAGUGUCACACACACUCUUCCCAAAGACGUGAUGAGUUAAAGUUGUAUUCUGAAAUCAUGAAGCCAGAGCCUGUGCCAGACCUUCUGCUACCUCUC,0.3

# Sample 3
# Target: Sal-like protein 4, full length isoform B (SALL4, Homo sapiens, UniProt Q9UJQ4-2, residues 1-616)
# Technique: universal PBM
# Form: double-stranded DNA, one strand shown
# Matrix: in vitro
# Concentration: not given
# Notes: 8-mer, flanks averaged, mean of replicates
# Reading: higher = stronger binding
Oligonucleotide,E-score
AGGTATAC,0.0922
CGCAAGTC,-0.212
AGGCTGCA,-0.0185
CCCAACCC,-0.0329
CTTGTGAA,0.0682
AGTGGGGG,-0.069
AAAGAACG,0.147
AAATCTAG,0.0394
AAGGAGTA,-0.0455
GAGAAGCA,-0.0711
AAGAGGCT,-0.00875
AGGTCCAC,-0.258
TATCGACA,0.0173
GCCTTCAC,0.0114
AGAGCAAT,0.0621
CCAAGAGA,-0.0673
GATAGTGA,0.131
AGCGCTCA,-0.192
CACATTTA,0.288
CGCCGGAC,-0.372
TCACCGCA,-0.121
ATAATGAC,0.112
CGTCGATA,0.0272
CTGCCCCC,-0.22
GACCCCAC,-0.162

# Sample 4
# Target: ABI1, truncated, D143A, DHFR fusion (Arabidopsis thaliana)
# Technique: DHFR PCA, deep sequencing
# Matrix: yeast
# Notes: methotrexate growth selection, single substitutions
# Together with: (+)-ABA 0.032 µM
# Reference: wild-type fitted maximum
# Reading: higher = stronger binding
# Parent: PYL1, truncated, DHFR fusion (Arabidopsis thaliana); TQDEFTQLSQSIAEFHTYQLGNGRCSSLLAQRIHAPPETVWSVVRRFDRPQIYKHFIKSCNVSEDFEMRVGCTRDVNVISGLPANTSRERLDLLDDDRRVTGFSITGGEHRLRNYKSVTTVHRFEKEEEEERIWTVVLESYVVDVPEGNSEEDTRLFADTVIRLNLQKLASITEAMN
Variant,relative binding score
E89G,0.867%
L28S,1.76%
V143H,0.765%
L29A,4.77%
E128L,18.2%
E139T,14%
E131P,69.3%
T160G,-3.81%
R46L,-3.47%
I105F,-5.07%
R69S,12.3%
L138K,1.05%
Y53G,-0.908%
D153T,-4.04%
W134N,12%
R123P,21.3%

# Sample 5
# Target: Interferon regulatory factor 3, full length, phosphomimetic (IRF3, Homo sapiens, UniProt Q14653, residues 1-427, S386D/S396D/S398D/S402D/T404D/S405D)
# UniProt Q14653, sequence (whole entry, unmodified, looked up): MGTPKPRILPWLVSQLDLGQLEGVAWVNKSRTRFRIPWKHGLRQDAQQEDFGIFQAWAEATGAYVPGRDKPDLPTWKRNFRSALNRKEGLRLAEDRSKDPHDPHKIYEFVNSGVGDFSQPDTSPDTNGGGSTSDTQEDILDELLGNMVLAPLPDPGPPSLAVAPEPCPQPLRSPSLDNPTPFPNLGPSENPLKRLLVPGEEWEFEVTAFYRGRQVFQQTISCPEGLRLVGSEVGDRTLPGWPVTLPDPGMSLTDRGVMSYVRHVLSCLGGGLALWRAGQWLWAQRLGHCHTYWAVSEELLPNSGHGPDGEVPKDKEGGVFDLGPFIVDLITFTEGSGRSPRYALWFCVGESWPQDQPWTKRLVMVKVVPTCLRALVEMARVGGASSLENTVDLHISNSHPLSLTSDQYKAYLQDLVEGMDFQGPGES
# Technique: protein-binding microarray
# Form: double-stranded DNA, one strand shown
# Matrix: in vitro
# Concentration: 2540 nM top
# Notes: 60-bp whole probe
# Together with: salmon DNA 0.4 mg/ml
# Reference: random background probes
# Reading: higher = stronger binding
# Constant ends, left off below: GCCTAGCAC … GTCTTGATTCGCTTGACGCTGCTG
Oligonucleotide,fitted relative affinity [z-score]
GACGATATCGGTCTCGAGACGTGCTAG,1.43
TCATAACTCATTCTCCAACTGTGCTAG,1.61
TCAGTTGTACTTTCTATCACTGTGCTA,1.98
TTAGGTACCGACACTGGGTTAGTGCTA,0.101
GACGGACTGCTCCTGCTGACGTGCTAG,-0.679
GTGTTTCTCAGTTTATTTATGTGCTAG,1.9
TCAACTTTCTGAATGCCACTGTGCTAG,2.21
TACGGACTGGGACTGGGGACGTGCTAG,-0.723
TCACCTTCCCCTCTAGGACTGTGCTAG,1.45
TTAGATATCGGGTATCTATTAGTGCTA,0.237
TTAGGTATCGGGTTTCGGTCAGTGCTA,3.34
ACAGCAAGAGCTCAACGGGGGTGCTAG,-0.383
TCACTTTACTTTCTTTTACTGTGCTAG,4.23
TTAGATTTCGGGTATCGATAAGTGCTA,1.62
TTCTTAATGCTTCTGGACCAGTGCTAG,0.525
GACGGTATCCTACTGCTCACGTGCTAG,2.56
GACGGTCTCGGTATCGGGAGGTGCTAG,1.51
